Experimental data collected from several papers.
Compare with care: the assays were run in different laboratories. ± gives the spread as reported.

Structure (SMILES) | target | test | test system | conditions | scale | measurement | value
N#Cc1c(N)nc(SCC(N)=O)c(C#N)c1-c1ccc(OCC2CC2)cc1 | ERK1/2 rat | decrease of PMA-increased activity | H9c2 | together with: PMA pretreatment | – | EC50 | 26.8 ± 3.7 nM
[Ba+2] | PP2C | enzyme activity | – | concentration not given | – | activity class | inactive
CC(C)CC(=O)OC[C@H]1O[C@@](C#N)(c2ccc3c(N)ncnn23)[C@H](O)[C@@H]1O | GABAA receptor rat hippocampus | radioligand binding | – | 20 µM, together with: Ro-15-1788 | – | inhibition | -2%
CCCCCCCCCCCCCC(=O)O[C@@H]1[C@@H](C)[C@@]2(O)[C@@H](C=C(CO)C[C@]3(O)C(=O)C(C)=C[C@@H]23)[C@@H]2C(C)(C)[C@]12OC(C)=O | phorbol ester receptor mouse | binding, radioligand binding | – | – | – | IC50 | 1.08 nM
Nc1nc2c(ncn2[C@@H]2O[C@@H]3COP(=O)(O)O[C@H]4[C@@H](O)[C@H](n5cnc6c(N)ncnc65)O[C@@H]4COP(=O)(O)O[C@@H]2[C@@H]3O)c(=O)[nH]1 | STING (RUSH) | confocal microscopy | – | concentration not given, together with: biotin | – | STING Golgi localization | ~85%
O[C@@H]1[C@@H]2OP(O)(=S)OC[C@H]2O[C@H]1n1cnc2cc(Cl)c(Cl)cc21 (single isomer, unassigned) | anti-cAMP antibody | binding, cAMP EIA, acetylated | – | – | – | EC50 | > 10000 nM
[Hg+2] | PP2C | enzyme activity | – | concentration not given | – | activity class | inactive
O=C(Cc1ccc(I)cc1)N[C@H]1CCOC1=O | ExpR1 (Pectobacterium carotovorum) | cellulase activity, agonist | Pectobacterium carotovorum, single-ExpR1 strain | 200 µM, 4 h | reference: OHHL | activation | 6%
C[C@H](C(=O)N[C@H]1COc2ccccc2[C@@H]1S(C)(=O)=O)c1ccc(F)cc1 | phorbol ester site, mouse | binding | – | 10 µM, Eurofins selectivity panel | – | inhibition | -3%
CCCCCC(=O)N[C@H]1CCOC1=O | ExpR1 (Pectobacterium carotovorum) | cellulase activity, agonist | Pectobacterium carotovorum, single-ExpR1 strain | 200 µM, 4 h | reference: OHHL | activation | 5%
c1ccc2c(c1)OCC(C1=NCCN1)O2 (stereo not shown) | rat central imidazoline I2 receptor | radioligand binding | – | – | – | IC50 | 7 nM
O=C(Cc1ccc(Cl)cc1)N[C@H]1CCOC1=O | ExpR1 (Pectobacterium carotovorum) | cellulase activity, antagonist | Pectobacterium carotovorum, single-ExpR1 strain | 5 µM, 4 h, together with: OHHL 5 µM | – | inhibition | 78%
c1ccc(C(NCCNC(c2ccccc2)c2ccccc2)c2ccccc2)cc1 | L-type calcium channel, rat, Benzothiazepine site | binding | – | 10 µM, Eurofins selectivity panel | – | inhibition | 56%
O=C(Cc1cccc(Br)c1)N[C@H]1CCOC1=O | ExpR1 (Pectobacterium carotovorum) | cellulase activity, agonist | Pectobacterium carotovorum, single-ExpR1 strain | 200 µM, 4 h | reference: OHHL | activation | 63%
CCCN(CCC)c1c([N+](=O)[O-])cc(C(C)C)cc1[N+](=O)[O-] | anti-BL mouse monoclonal antibody | binding, indirect competitive ELISA | – | pH 7.4, 1% methanol | – | IC50 | > 1 µg/mL
CCCCCC(=O)CC(=O)N[C@H]1CCOC1=O | ExpR1 (Pectobacterium carotovorum) | cellulase activity, agonist | Pectobacterium carotovorum, single-ExpR1 strain | 200 µM, 4 h | reference: OHHL | activation | 29%
COc1cc(Nc2ncc(F)c(Nc3ccc4c(n3)NC(=O)C(C)(C)O4)n2)cc(OC)c1OC | glycine transporter | – | – | – | – | IC50 | > 10000 nM
O=C(Cc1cccc2ccccc12)N[C@H]1CCOC1=O | ExpR1 (Pectobacterium carotovorum) | cellulase activity, antagonist | Pectobacterium carotovorum, single-ExpR1 strain | 5 µM, 4 h, together with: OHHL 5 µM | – | inhibition | 69%
NCCc1c[nH]c2ccccc12 | NMT from Rhinella marina | – | – | 10 min, 30 °C | – | kcat | 0.00052 s⁻¹

Excerpt of the above:
Structure (SMILES) | target | test | test system | conditions | scale | measurement | value
O=C(Cc1cccc(Br)c1)N[C@H]1CCOC1=O | ExpR1 (Pectobacterium carotovorum) | cellulase activity, agonist | Pectobacterium carotovorum, single-ExpR1 strain | 200 µM, 4 h | reference: OHHL | activation | 63%
